Experimental data from different studies.
Method: steady-state kinetics
B1: enzyme (Thermoplasma acidophilum, UniProt Q9HJI4); chain MEFNLHAVSSEEKERDFDVVIVGAGAAGFSAAVYAARSGFSVAILDKAVAGGLTAEAPLVENYLGFKSIVGSELAKLFADHAANYAKIREGVEVRSIKKTQGGFDIETNDDTYHAKYVIITTGTTHKHLGVKGESEYFGKGTSYCSTCDGYLFKGKRVVTIGGGNSGAIAAISMSEYVKNVTIIEYMPKYMCENAYVQEIKKRNIPYIMNAQVTEIVGDGKKVTGVKYKDRTTGEEKLIETDGVFIYVGLIPQTSFLKDSGVKLDERGYIVVDSRQRTSVPGVYAAGDVTSGNFAQIASAVGDGCKAALSLYSDSISKK
B2: enzyme (Saccharomyces cerevisiae, UniProt P38361); chain MALHQFDYIFAIAMLFAFLDAFNIGANDVANSFASSISSRSLKYWQAMVLAGLCEFLGAVLAGARVSGTIKNNIIDSSIFTNDPAVLMLTMTSALIGSSCWLTFATAIGMPVSTTHSIVGGTIGAGIAAGGANGVVWGWSGVSQIIASWFIAPILAGAIAAIVFSISRFSVLEVKSLERSIKNALLLVGVLVFATFSILTMLIVWKGSPNLHLDDLSETETAVSIVLTGAIASIVYFIFFYPFYRRKVLDQDWTLKLIDIFRGPSFYFKSTDDIPPMPEGHQLTIDYYEGRRNLGTTVSVEDEENKAASNSNDSVKNKEDIQEVDLVRTETEPETKLSTKQYWWSLLKQGPKKWPLLFWLVISHGWTQDVIHAQVNDRDMLSGDLKGMYERSKFYDNRVEYIYSVLQAITAATMSFAHGANDVANATGPLSAVYVIWKTNTIGAKSEVPVWVLAYGGVALVIGCWTYGYNIIKNLGNKMILQSPSRGFSIELAVAITTVMATQLGIPTSTTQIAVGGIVAVGLCNKDLKSVNWRMVAWCYSGWFLTLPIAGLIAGIINGIILNAPRFGVEYQMT
B3: enzyme A178R/D177A/P184R (Levilactobacillus brevis, UniProt Q03Q85); chain MKVTVVGCTHAGTFAIKQILAEHPDAEVTVYERNDVISFLSCGIALYLGGKVADPQGLFYSSPEELQKLGANVQMNHNVLAIDPDQKTVTVEDLTNHAQTTESYDKLVMTSGSWPIVPKIPGIDSDRVKLCKNWAHAQALIEDAKEAKRITVIGAGYIGAELAEAYSTTGHDVTLIARMARVMRKYFDADFTDVIEQDYRDHGVQLALGETVESFTDSATGLTIKTDKNSYETDLAILCIGFRPNTDLLKGKVDMAPNGAIITDDYMRSSNPDIFAAGDSAAVHYNPTHQNAYIPLATNAVRQGILVGKNLVKPTVKYMGTQSSSGLALYDRTIVSTGLTLAAAKQQGLNAEQVIVEDNYRPEFMPSTEPVLMSLVFDPDTHRILGGALMSKYDVSQSANTLSVCIQNENTIDDLAMVDMLFQPNFDRPFNYLNILAQAAQAKVAQSVNA
B4: protein (Cecembia lonarensis, UniProt K1KZY4); chain QVQYNPEKPARPEDHKPFFYKYNTRQLYEKFSDDLMQRAANDRKEIEKINQLGKYKPKKQSLDEHEVPEWFRDAKLGIFLDWGPWSVPGYAPPGSEGDTGGSYPDWYEFLMDFTYKAYHDSIWGEDFRRDDFLPLLHGNNFDSEEYAELAVQAGAKYMVPFARHHAGWTMWESKYTFRNAVEMGPKRDILKELVEASRKRDLKFGFYFSIAEWEYPVITKERVSQWDPYEDMAIFHDGMGLIPRPVPLASYFPARHDRMISGKIPVKDYFGDYMMPLFKEGVDLFDPDLVWYDGGWGTPANSSRVPELSAYFYNQAEGRKEVVINNRAGAYLDDSNLLKFNEVLKSGEHDKLLELYMKAEQIGDYLTPEYSIGNVDINEPWEVCRSISPAFGFNWTDNEENSLSSKELVKMFVGIVANNGNLLLVINPDGSGKLSNVQKDRLLDLGQWLKVNGEGIYSTRPWEIQESEGNFFTKSKNGEFIYIHILDKEKTTIEVPNLNPKNKGAISILGSKEKVLWENSGPITRITIPESFKDERNWPNKYGFTLKVAVK
B5: LYS1 C205S/K99M (Saccharomyces cerevisiae, UniProt P38998); chain MAAVTLHLRAETKPLEARAALTPTTVKKLIAKGFKIYVEDSPQSTFNINEYRQAGAIIVPAGSWKTAPRDRIIIGLKEMPETDTFPLVHEHIQFAHCYMDQAGWQNVLMRFIKGHGTLYDLEFLENDQGRRVAAFGFYAGFAGAALGVRDWAFKQTHSDDEDLPAVSPYPNEKALVKDVTKDYKEALATGARKPTVLIIGALGRSGSGAIDLLHKVGIPDANILKWDIKETSRGGPFDEIPQADIFINCIYLSKPIAPFTNMEKLNNPNRRLRTVVDVSADTTNPHNPIPIYTVATVFNKPTVLVPTTAGPKLSVISIDHLPSLLPREASEFFSHDLLPSLELLPQRKTAPVWVRAKKLFDRHCARVKRSSRL
B6: CHST10 (Homo sapiens, UniProt O43529); chain TFKDPDVYSAKQEFLFLTTMPEVRKLPEEKHIPEELKPTGKELPDSQLVQPLVYMERLELIRNVCRDDALKNLSHTPVSKFVLDRIFVCDKHKILFCQTPKVGNTQWKKVLIVLNGAFSSIEEIPENVVHDHEKNGLPRLSSFSDAEIQKRLKTYFKFFIVRDPFERLISAFKDKFVHNPRFEPWYRHEIAPGIIRKYRRNRTETRGIQFEDFVRYLGDPNHRWLDLQFGDHIIHWVTYVELCAPCEIMYSVIGHHETLEDDAPYILKEAGIDHLVSYPTIPPGITVYNRTKVEHYFLGISKRDIRRLYARFEGDFKLFGYQKPDFLLN
B7: UGT84B1 (Arabidopsis thaliana, UniProt O22182); chain MGSSEGQETHVLMVTLPFQGHINPMLKLAKHLSLSSKNLHINLATIESARDLLSTVEKPRYPVDLVFFSDGLPKEDPKAPETLLKSLNKVGAMNLSKIIEEKRYSCIISSPFTPWVPAVAASHNISCAILWIQACGAYSVYYRYYMKTNSFPDLEDLNQTVELPALPLLEVRDLPSFMLPSGGAHFYNLMAEFADCLRYVKWVLVNSFYELESEIIESMADLKPVIPIGPLVSPFLLGDGEEETLDGKNLDFCKSDDCCMEWLDKQARSSVVYISFGSMLETLENQVETIAKALKNRGLPFLWVIRPKEKAQNVAVLQEMVKEGQGVVLEWSPQEKILSHEAISCFVTHCGWNSTMETVVAGVPVVAYPSWTDQPIDARLLVDVFGIGVRMRNDSVDGELKVEEVERCIEAVTEGPAAVDIRRRAAELKRVARLALAPGGSSTRNLDLFISDITIA
B8: ERAP1 K528R (Homo sapiens, UniProt Q9NZ08); chain MVFLPLKWSLATMSFLLSSLLALLTVSTPSWCQSTEASPKRSDGTPFPWNKIRLPEYVIPVHYDLLIHANLTTLTFWGTTKVEITASQPTSTIILHSHHLQISRATLRKGAGERLSEEPLQVLEHPRQEQIALLAPEPLLVGLPYTVVIHYAGNLSETFHGFYKSTYRTKEGELRILASTQFEPTAARMAFPCFDEPAFKASFSIKIRREPRHLAISNMPLVKSVTVAEGLIEDHFDVTVKMSTYLVAFIISDFESVSKITKSGVKVSVYAVPDKINQADYALDAAVTLLEFYEDYFSIPYPLPKQDLAAIPDFQSGAMENWGLTTYRESALLFDAEKSSASSKLGITMTVAHELAHQWFGNLVTMEWWNDLWLNEGFAKFMEFVSVSVTHPELKVGDYFFGKCFDAMEVDALNSSHPVSTPVENPAQIREMFDDVSYDKGACILNMLREYLSADAFKSGIVQYLQKHSYKNTKNEDLWDSMASICPTDGVKGMDGFCSRSQHSSSSSHWHQEGVDVKTMMNTWTLQRGFPLITITVRGRNVHMKQEHYMKGSDGAPDTGYLWHVPLTFITSKSDMVHRFLLKTKTDVLILPEEVEWIKFNVGMNGYYIVHYEDDGWDSLTGLLKGTHTAVSSNDRASLINNAFQLVSIGKLSIEKALDLSLYLKHETEIMPVFQGLNELIPMYKLMEKRDMNEVETQFKAFLIRLLRDLIDKQTWTDEGSVSERMLRSQLLLLACVHNYQPCVQRAEGYFRKWKESNGNLSLPVDVTLAVFAVGAQSTEGWDFLYSKYQFSLSSTEKSQIEFALCRTQNKEKLQWLLDESFKGDKIKTQEFPQILTLIGRNPVGYPLAWQFLRKNWNKLVQKFELGSSSIAHMVMGTTNQFSTRTRLEEVKGFFSSLKENGSQLRCVQQTIETIEENIGWMDKNFDKIRVWLQSEKLEHDPEADATG
B9: TcA (Trypanosoma cruzi, UniProt Q4DRC4); chain MFIRLFAREEEGEKEGKICHMPREYEFAEKILFTEEEIRTRIKEVAKRIADDYKGKGLRPYVNPLVLISVLKGSFMFTADLCRALCDFNVPVRMEFICVSSYGEGLTSSGQVRMLLDTRHSIEGHHVLIVEDIVDTALTLNYLYHMYFTRRPASLKTVVLLDKREGRRVPFSADYVVANIPNAFVIGYGLDYDDTYRELRDIVVLRPEVYAEREAARQKKQRAIGSADTDRDAKREFHSKY
Chain of UniProt P51687 (whole entry, looked up): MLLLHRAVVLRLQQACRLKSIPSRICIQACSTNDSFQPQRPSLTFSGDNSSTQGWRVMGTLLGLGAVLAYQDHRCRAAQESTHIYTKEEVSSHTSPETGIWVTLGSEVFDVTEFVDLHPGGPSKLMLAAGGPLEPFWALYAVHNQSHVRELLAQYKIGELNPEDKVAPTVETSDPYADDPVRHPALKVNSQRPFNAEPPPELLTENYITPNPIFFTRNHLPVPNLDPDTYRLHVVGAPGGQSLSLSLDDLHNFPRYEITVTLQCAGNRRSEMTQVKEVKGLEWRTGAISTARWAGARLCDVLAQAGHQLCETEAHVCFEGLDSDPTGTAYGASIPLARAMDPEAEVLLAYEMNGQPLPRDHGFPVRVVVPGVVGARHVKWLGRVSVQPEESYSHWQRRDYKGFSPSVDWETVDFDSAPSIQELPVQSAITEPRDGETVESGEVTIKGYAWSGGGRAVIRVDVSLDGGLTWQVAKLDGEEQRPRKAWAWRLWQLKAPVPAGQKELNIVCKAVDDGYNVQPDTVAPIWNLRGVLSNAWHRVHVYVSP
Chain of UniProt P69848 (whole entry, looked up): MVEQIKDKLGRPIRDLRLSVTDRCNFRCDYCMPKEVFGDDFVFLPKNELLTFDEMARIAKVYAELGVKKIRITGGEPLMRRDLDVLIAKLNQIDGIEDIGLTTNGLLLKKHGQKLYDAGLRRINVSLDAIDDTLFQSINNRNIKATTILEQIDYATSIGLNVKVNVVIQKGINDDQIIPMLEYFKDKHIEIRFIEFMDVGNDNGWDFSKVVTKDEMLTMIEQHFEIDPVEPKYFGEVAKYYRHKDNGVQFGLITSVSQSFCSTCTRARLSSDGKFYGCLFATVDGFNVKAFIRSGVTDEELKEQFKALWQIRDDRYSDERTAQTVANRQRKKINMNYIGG
Chain of UniProt P12081 (whole entry, looked up): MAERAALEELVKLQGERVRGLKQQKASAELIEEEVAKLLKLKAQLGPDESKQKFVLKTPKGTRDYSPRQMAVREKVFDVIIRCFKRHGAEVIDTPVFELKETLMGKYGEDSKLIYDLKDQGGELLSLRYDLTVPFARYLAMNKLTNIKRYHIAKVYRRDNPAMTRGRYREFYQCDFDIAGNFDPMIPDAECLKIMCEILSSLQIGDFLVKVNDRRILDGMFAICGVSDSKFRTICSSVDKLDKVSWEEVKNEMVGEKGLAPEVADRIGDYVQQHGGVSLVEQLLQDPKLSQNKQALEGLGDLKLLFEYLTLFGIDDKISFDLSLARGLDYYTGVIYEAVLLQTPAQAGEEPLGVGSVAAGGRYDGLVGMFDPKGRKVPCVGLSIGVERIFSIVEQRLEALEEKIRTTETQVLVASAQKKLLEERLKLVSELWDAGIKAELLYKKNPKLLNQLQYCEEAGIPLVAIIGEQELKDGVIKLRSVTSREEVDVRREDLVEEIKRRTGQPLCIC

Molecule	substrate	setting	Km
B1 (enzyme)	NC(=O)C1=CN([C@@H]2O[C@H](COP(=O)(O)OP(=O)(O)OC[C@H]3O[C@@H](n4cnc5c(N)ncnc54)[C@H](O)[C@@H]3O)[C@@H](O)[C@H]2O)C=CC1	pH 7, 60 °C, apparent	3.12 µM
B2 (enzyme)	O=P(O)(O)O	25 °C, apparent	64.1 µM
B3 (enzyme A178R/D177A/P184R)	NC(=O)C1=CN([C@@H]2O[C@H](COP(=O)(O)OP(=O)(O)OC[C@H]3O[C@@H](n4cnc5c(N)ncnc54)[C@H](OP(=O)(O)O)[C@@H]3O)[C@@H](O)[C@H]2O)C=CC1	pH 7.5, 37 °C	61 µM
B4 (protein)	C[C@@H]1O[C@@H](Oc2ccc([N+](=O)[O-])cc2)[C@@H](O)[C@H](O)[C@H]1O	pH 5.5, 35 °C	268 µM
HARS1 (Homo sapiens, UniProt P12081)	Nc1ncnc2c1ncn2[C@@H]1O[C@H](COP(=O)(O)OP(=O)(O)OP(=O)(O)O)[C@@H](O)[C@H]1O	pH 7.5, with: histidine, tRNAHis 5 µM, MgCl2 10 mM, KCl 150 mM	44.2 µM
B5 (LYS1 C205S/K99M)	NCCCC[C@H](N)C(=O)O	pH 7.2, 25 °C, with: NADH and α-Kg	99000 µM
moaA (Staphylococcus aureus, UniProt P69848)	Nc1nc2c(ncn2[C@@H]2O[C@H](COP(=O)(O)OP(=O)(O)OP(=O)(O)O)[C@@H](O)[C@H]2O)c(=O)[nH]1	pH 7.6, 25 °C, with: SAM, dithionite, MgCl2 1 mM	1.4 µM
B6 (CHST10)	[H][C@@]12CCc3cc(O[C@@H]4O[C@H](C(=O)O)[C@@H](O)[C@H](O)[C@H]4O)ccc3[C@@]1([H])CC[C@]1(C)[C@@H](O)CC[C@@]21[H]	pH 7.2, 37 °C	321 µM
SUOX (Homo sapiens, UniProt P51687)	O=S(O)O	with: cytochrome c (horse heart)	1 µM
B7 (UGT84B1)	O=C(O)Cc1c[nH]c2ccccc12	pH 7.5, 30 °C, with: UDP-glucose 4 mM, MgSO4 2.5 mM	23.1 µM
B8 (ERAP1 K528R)	CC(C)C[C@H](NC(=O)CNC(=O)[C@H](CCC(=O)O)NC(=O)[C@H](Cc1ccccc1)NC(=O)[C@H](CCCNC(=N)N)NC(=O)[C@H](CCCCN)NC(=O)[C@@H](N)Cc1ccc(O)cc1)C(=O)N[C@H](C(=O)N[C@@H](CCC(N)=O)C(=O)N[C@@H](CCCNC(=N)N)C(=O)O)[C@@H](C)O	25 °C	37 µM
B9 (TcA)	O=c1[nH]c(=O)c2[nH]cnc2[nH]1	pH 8.3, 37 °C, apparent, with: PRPP 1 mM, MgCl2 12 mM	160 µM

Repeated from above:
Molecule	substrate	setting	Km
B2 (enzyme)	O=P(O)(O)O	25 °C, apparent	64.1 µM
